Published values collected from several papers.
A part holds a random share of what one study measured. Substitutions count along the parent as printed.
UniProt P49761, sequence (whole entry, looked up): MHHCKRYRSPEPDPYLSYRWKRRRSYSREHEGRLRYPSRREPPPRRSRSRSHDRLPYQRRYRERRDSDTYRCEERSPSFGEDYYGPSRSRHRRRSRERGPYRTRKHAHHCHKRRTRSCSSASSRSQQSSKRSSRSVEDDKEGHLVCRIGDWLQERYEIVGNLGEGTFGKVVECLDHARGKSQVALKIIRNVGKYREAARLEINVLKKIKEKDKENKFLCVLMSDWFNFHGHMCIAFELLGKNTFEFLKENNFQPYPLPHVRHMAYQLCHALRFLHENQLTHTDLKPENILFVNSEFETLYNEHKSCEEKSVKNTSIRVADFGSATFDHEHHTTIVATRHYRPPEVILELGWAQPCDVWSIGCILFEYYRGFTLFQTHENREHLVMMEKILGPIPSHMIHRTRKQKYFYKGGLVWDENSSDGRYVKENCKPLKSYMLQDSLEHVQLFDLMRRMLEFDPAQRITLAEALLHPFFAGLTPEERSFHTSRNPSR
UniProt P22607, sequence (whole entry, unmodified, looked up): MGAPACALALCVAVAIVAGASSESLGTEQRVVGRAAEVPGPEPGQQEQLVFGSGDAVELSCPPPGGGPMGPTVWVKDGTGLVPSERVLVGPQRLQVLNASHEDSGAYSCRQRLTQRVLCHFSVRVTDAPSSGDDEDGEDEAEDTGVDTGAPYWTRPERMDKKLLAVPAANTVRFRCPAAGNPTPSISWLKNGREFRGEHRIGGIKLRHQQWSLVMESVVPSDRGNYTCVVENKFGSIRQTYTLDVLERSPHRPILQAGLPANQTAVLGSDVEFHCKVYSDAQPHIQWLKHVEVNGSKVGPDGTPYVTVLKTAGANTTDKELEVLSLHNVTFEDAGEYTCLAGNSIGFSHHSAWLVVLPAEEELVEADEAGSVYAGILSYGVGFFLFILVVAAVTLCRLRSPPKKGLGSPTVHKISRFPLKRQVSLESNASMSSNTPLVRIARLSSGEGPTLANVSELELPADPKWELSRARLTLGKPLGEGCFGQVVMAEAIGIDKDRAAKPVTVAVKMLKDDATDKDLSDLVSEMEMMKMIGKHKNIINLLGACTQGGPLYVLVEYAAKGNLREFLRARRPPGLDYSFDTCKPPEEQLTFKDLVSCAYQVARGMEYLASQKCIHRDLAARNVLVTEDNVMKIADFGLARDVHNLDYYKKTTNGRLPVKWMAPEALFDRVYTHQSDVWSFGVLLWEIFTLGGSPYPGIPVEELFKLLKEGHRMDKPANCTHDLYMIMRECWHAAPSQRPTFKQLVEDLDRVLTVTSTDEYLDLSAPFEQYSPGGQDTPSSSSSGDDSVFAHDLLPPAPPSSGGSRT
UniProt P54646, sequence (whole entry, looked up): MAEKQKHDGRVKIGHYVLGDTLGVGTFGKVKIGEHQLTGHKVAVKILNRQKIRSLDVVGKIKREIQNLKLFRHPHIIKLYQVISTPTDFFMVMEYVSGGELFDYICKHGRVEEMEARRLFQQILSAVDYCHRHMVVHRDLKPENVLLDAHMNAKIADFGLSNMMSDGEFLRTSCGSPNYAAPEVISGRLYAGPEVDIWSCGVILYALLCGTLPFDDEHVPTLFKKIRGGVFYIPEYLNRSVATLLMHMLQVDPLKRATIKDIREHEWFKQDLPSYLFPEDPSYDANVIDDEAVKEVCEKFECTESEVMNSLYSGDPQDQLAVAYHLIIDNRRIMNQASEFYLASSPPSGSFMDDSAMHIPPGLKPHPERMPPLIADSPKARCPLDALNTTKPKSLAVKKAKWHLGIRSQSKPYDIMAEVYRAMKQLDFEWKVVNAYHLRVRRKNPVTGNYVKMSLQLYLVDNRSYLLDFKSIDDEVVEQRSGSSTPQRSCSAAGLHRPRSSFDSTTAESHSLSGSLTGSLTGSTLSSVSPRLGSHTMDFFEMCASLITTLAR
UniProt P29597, sequence (whole entry, looked up): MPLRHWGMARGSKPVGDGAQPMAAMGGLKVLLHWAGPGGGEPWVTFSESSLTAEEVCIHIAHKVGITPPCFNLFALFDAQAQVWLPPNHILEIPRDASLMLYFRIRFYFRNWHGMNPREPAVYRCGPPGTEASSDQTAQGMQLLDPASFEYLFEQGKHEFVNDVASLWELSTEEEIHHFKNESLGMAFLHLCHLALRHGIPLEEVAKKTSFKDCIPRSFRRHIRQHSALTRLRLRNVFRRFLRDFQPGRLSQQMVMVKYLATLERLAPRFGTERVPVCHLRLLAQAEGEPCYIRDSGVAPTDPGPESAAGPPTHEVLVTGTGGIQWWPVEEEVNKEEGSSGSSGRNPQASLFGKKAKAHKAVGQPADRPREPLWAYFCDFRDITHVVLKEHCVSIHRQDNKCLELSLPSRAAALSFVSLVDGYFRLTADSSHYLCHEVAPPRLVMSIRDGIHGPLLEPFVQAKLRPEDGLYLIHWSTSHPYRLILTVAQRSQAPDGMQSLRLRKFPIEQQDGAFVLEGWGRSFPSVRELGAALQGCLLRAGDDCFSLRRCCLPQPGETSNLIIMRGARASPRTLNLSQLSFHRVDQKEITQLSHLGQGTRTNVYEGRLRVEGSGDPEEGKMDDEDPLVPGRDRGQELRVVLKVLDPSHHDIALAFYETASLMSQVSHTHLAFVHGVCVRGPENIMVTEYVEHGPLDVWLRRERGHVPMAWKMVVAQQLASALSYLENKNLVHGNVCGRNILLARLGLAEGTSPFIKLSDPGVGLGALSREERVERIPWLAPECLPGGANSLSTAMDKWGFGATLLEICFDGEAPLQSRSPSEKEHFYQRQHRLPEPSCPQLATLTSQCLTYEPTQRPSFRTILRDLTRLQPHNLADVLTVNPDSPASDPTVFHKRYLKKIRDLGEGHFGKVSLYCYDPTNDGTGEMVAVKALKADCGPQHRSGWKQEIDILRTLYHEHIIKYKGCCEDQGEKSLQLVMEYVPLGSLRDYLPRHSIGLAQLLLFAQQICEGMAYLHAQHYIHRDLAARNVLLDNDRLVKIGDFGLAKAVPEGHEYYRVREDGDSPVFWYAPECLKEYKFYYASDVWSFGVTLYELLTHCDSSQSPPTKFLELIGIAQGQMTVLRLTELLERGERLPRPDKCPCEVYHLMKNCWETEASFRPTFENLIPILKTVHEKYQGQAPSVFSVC
UniProt P53778, sequence (whole entry, looked up): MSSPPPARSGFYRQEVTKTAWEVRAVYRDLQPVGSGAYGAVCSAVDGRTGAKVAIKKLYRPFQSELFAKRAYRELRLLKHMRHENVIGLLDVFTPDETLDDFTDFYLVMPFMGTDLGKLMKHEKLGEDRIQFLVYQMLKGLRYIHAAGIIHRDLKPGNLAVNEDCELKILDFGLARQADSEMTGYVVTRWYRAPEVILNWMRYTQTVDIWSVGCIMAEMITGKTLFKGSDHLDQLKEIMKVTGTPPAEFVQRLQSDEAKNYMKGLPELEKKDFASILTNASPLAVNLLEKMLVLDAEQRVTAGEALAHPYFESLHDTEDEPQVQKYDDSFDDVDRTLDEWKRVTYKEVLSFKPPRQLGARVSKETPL

Sample 1
Target: NFIL3, bZIP domain (human)
Technique: DHFR protein complementation
Sample: yeast
Notes: single substitutions, most at no-binding floor
Relative to: wild-type JUN-FOS pair
Direction: higher = stronger binding
Parent: JUN, bZIP domain (human); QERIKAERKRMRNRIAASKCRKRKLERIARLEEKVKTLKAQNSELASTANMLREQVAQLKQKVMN; partner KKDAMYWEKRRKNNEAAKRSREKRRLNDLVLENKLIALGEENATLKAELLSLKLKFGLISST
Variant	binding fitness
T48Y	-1.59 natural log
A49R	-1.41 natural log
L38H	-1.53 natural log
S47K	-1.45 natural log
L38P	-1.52 natural log
S43P	-1.48 natural log
L52M	-1.46 natural log
M51L	-1.5 natural log

Sample 2
Target: Sal-like protein 4, full length isoform A (SALL4, Homo sapiens, UniProt Q9UJQ4, residues 1-1053)
UniProt Q9UJQ4, sequence (whole entry, looked up): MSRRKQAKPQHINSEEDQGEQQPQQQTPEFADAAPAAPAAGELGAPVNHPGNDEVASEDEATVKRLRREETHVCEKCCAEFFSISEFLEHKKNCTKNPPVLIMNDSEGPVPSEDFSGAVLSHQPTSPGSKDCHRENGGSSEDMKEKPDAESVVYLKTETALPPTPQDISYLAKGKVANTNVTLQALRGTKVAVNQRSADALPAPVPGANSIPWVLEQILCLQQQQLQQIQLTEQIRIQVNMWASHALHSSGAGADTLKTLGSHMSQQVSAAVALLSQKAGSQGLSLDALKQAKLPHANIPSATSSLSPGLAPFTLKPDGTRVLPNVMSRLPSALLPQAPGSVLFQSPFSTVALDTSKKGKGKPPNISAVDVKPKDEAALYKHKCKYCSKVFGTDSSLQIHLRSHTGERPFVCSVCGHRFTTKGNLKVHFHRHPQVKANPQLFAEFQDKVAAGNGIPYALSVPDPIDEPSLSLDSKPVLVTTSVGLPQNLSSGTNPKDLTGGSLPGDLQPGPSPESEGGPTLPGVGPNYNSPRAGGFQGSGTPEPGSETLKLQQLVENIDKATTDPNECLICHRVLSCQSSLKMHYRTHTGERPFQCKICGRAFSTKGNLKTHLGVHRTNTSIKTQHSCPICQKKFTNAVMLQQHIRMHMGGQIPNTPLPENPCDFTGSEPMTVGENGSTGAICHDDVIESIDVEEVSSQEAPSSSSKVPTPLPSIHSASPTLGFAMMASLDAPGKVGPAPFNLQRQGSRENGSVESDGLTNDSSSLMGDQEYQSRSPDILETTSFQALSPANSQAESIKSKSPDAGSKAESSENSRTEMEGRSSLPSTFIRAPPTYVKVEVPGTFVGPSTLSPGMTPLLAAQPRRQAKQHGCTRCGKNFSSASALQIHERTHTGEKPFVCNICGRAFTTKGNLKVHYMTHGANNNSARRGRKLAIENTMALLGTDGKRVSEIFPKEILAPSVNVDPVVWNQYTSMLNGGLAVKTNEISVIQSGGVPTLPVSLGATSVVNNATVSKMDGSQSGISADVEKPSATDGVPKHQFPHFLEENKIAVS
Technique: universal PBM
Form: double-stranded DNA, one strand shown
Sample: in vitro
Tested at: 600 nM
Notes: 8-mer, flanks averaged, mean of replicates
Direction: higher = stronger binding
Sequence	E-score
ACGGGAGC	-0.275
GCACGAAC	-0.065
CCGCGTTC	-0.251
CGGCATCA	-0.0931
ACTAGTAG	0.123
GGGTTTCA	-0.0474
CCCCACAC	-0.119
GTTCTGGA	0.00993

Sample 3
SMILES: CS(=O)(=O)NCC[C@H](NC(=O)c1cncc2c1cnn2-c1ccc(F)cc1)c1ccnc(S(C)(=O)=O)c1
Observed: cell-free assay
Technique: competition with immobilised ligand
Tested at: 1 µM
target	remaining binding
Fibroblast growth factor receptor 3 (FGFR3, Homo sapiens, UniProt P22607, G697C)	82%
Non-receptor tyrosine-protein kinase TYK2, JH2 (TYK2, Homo sapiens, UniProt P29597)	100%
Epidermal growth factor receptor (EGFR, Homo sapiens, UniProt P00533)	84%
Testis-specific serine/threonine-protein kinase 1 (TSSK1B, Homo sapiens, UniProt Q9BXA7)	99%
Phosphorylase b kinase gamma catalytic chain, skeletal muscle/heart isoform (PHKG1, Homo sapiens, UniProt Q16816)	75%
Proto-oncogene tyrosine-protein kinase receptor Ret (RET, Homo sapiens, UniProt P07949, V804L)	100%
5'-AMP-activated protein kinase catalytic subunit alpha-2 (PRKAA2, Homo sapiens, UniProt P54646)	97%
Tyrosine-protein kinase ABL1, phosphorylated (ABL1, Homo sapiens, UniProt P00519, F317L)	69%
Mitogen-activated protein kinase 14 (MAPK14, Homo sapiens, UniProt Q16539)	100%
Mitogen-activated protein kinase 12 (MAPK12, Homo sapiens, UniProt P53778)	100%
Dual specificity protein kinase CLK3 (CLK3, Homo sapiens, UniProt P49761)	99%

Single results of other studies
Target: Beta-1 adrenergic receptor (ADRB1, Homo sapiens, UniProt P08588)
UniProt P08588, sequence (whole entry, looked up): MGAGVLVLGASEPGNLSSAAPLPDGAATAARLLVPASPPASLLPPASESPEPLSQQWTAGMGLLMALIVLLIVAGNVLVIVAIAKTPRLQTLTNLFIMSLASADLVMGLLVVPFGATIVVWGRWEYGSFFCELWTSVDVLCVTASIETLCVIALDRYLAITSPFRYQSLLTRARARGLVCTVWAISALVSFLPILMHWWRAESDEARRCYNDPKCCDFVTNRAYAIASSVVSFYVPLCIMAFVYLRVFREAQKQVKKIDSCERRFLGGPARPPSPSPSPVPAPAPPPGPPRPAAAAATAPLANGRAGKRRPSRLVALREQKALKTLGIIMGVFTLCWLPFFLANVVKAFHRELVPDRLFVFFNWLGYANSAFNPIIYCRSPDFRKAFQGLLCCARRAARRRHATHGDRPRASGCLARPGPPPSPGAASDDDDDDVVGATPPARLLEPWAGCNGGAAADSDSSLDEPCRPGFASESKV
Action: antagonist
SMILES	IC50 [µM]
COc1ccccc1N1CCN(CC(=O)N2CCCC2c2ccc3c(c2)OCCO3)CC1 (centres unmarked)	≥ 100
CCOCCN1C(=O)COC[C@@H]1[C@H](O)c1ccc(NC(=O)Cc2ccccc2)cc1	≥ 100
